# Measurements gathered from unrelated publications.
# Each numbered part is a random draw from the data of one study; scales do not carry over between parts.

# Study 1
# Target: Histone acetyltransferase KAT6A, winged helix 2, GST fusion (KAT6A, Homo sapiens, UniProt Q92794, residues 85-181)
# Method: protein binding microarray
# Form: double-stranded DNA, one strand shown
# Matrix: in vitro
# Concentration: not given
# Notes: 8-mer, flanks averaged, mean of 2 arrays, mostly near background
# Reference: not given
# Reading: higher = stronger binding
# Target sequence (chain): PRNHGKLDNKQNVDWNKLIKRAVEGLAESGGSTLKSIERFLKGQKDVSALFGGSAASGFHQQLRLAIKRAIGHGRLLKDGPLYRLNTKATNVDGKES
Strand,E-score
CCGTGAAC,0.0628
AAAGACCT,-0.0984
ATTGGATG,0.119
CAGGTTGA,-0.211

# Study 2
# Target: Sal-like protein 4, full length isoform B (SALL4, Homo sapiens, UniProt Q9UJQ4-2, residues 1-616)
# Method: universal PBM
# Form: double-stranded DNA, one strand shown
# Matrix: in vitro
# Concentration: not given
# Notes: 8-mer, flanks averaged, mean of replicates
# Reading: higher = stronger binding
# Residues (chain): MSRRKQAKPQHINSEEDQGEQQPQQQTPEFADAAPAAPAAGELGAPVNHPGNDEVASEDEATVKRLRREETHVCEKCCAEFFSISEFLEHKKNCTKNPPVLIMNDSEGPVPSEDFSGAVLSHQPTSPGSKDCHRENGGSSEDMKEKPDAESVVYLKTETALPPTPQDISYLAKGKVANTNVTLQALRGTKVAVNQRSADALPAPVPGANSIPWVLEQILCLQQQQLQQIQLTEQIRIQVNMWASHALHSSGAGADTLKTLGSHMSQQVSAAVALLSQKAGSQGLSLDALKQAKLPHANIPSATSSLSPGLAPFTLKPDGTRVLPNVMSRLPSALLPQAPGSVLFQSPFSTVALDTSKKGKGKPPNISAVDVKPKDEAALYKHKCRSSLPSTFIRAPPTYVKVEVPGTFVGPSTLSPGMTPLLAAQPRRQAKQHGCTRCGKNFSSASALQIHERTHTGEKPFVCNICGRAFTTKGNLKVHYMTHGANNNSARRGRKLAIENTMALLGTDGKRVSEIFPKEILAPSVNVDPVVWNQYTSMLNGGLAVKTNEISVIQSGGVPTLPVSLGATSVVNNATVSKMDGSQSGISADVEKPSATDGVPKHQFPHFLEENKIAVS
Strand,E-score
AAAGTCAG,-0.0104
ACGTACCT,0.0118
TCAAACCA,0.017
CCGTGGCC,-0.392

# Study 3
# Target: Interferon regulatory factor 7, full length, phosphomimetic (IRF7, Homo sapiens, UniProt Q92985, residues 1-503, S471D/S472D/S475D/S476D/S477D/S483D/S484D/S487D)
# Method: protein-binding microarray
# Form: double-stranded DNA, one strand shown
# Matrix: in vitro
# Concentration: 2200 nM top
# Notes: 60-bp whole probe
# Together with: salmon DNA 0.4 mg/ml
# Reference: random background probes
# Reading: higher = stronger binding
# Target sequence (chain): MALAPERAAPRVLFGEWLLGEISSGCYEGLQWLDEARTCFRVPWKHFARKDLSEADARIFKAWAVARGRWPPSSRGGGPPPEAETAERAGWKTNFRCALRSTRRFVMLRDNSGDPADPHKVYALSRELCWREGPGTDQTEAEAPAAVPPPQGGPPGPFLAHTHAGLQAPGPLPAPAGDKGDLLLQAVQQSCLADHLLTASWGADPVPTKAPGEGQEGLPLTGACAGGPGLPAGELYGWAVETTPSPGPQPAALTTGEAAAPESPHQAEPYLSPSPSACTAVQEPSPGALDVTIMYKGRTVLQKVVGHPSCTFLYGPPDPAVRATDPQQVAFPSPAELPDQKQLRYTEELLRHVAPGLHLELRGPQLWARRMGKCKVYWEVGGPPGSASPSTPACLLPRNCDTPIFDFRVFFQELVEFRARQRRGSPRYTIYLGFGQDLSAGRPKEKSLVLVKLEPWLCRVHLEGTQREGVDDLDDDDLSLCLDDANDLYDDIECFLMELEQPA
Strand,fitted relative affinity [z-score]
GCCTAGCACGACGCTCTCAGACTGGAGACGTGCTAGGTCTTGATTCGCTTGACGCTGCTG,-0.00745
GCCTAGCACTTAGAACTGGGTTTCGATTAGTGCTAGGTCTTGATTCGCTTGACGCTGCTG,2.84
GCCTAGCACTTGGTTTTCATTATTGCTTCGTGCTAGGTCTTGATTCGCTTGACGCTGCTG,2.78

# Other studies, line by line
Molecule,target,test,test system,conditions,scale,measurement,value
"PhoQ, residues 284 288 289 292 302 303 TAVSDG","PhoP, residues 12 14 15 18 19 TTLRV (Escherichia coli, UniProt P23836)","Sort-seq, measured: YFP reporter",E. coli,"PhoQ-PhoP variant library, together with: 10 µM Mg2+","reference: high Mg2+ state, higher = stronger signaling",fold induction,2.22
